Results from different studies.
Every numbered part comes from another study and shows a few of its results, in no order.

Series 1 — method: RNA Bind-n-Seq; molecule type: RNA; matrix: in vitro; tested at: 365 nM; reference: no-protein control; reading: higher = stronger binding
Target: RNA binding protein fox-1 homolog 2, RRM domain, GST-SBP tag (RBFOX2, Homo sapiens, UniProt O43251-10, residues 100-194)
Notes: natural RNA segment, single round, ends assumed
Construct (chain): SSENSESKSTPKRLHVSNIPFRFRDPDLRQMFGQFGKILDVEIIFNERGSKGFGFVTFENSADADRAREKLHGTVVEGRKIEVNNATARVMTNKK
Oligonucleotide	RBNS enrichment (R)
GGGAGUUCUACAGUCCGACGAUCCACACGUGGUCGGUCACAUUGCCCUGCCUUACCUCCCAGGGGCCAACCCCUCACUGGUCUUGCAUGAGCUAGAGGGUUGGGAAGCUGGGCUCAUUCCACGCAUUGCCUGCUGGAAUUCUCGGGUGCCAA	17.8
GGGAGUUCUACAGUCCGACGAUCGCUUGUUUCCUGUCAGCCAUCUCUGUCUUUGGGUAUGAAACAUAAGGAUGGCUCCUCCGGUGUCGUGUUCUCUACCUAUAGAGCCAGCUCUGAAUGGAUGUGUUACCAGAUGGAAUUCUCGGGUGCCAA	1.8
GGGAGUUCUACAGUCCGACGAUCCCCACUCACGUGCUGUGUGCAUGAGAAGGAGGCCGCUGUGUUCACACUACUGCACCGCACCGCACCCAGAAAGAACUUUCUCCCCAGCGGUGACGACUGCUCCAUGGGGAUGGAAUUCUCGGGUGCCAA	1.2
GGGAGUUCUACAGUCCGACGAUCCCUAGAGGAGACAGCCUGUCUCUCCUUGUUGCCCCCAAAGCCCAUGCCCUGCCGUGGUGGCAGCUGGGGCUGUGGAUGGGAGGGGUCCCCAACAUGGAUGUGUUGCCCCUUGGAAUUCUCGGGUGCCAA	1.13
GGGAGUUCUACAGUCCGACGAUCCACUAACUGGUAAGGCUUAUUGUACAGUAUAUUGUCAGUAUUCUUCUGGUUCAGCAUACCUUAUAGUUCAUAUAUAACCUGUAUUAAUUGUAUAGAUUGUGCAUUAAAAGUGGAAUUCUCGGGUGCCAA	0.317
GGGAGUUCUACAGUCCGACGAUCACAGCUGCAGUGGACUCAUAAGUAAAAAGACCUCUUCCUUUGGCUUGGGGUACACCUUUGGAUGCUAUGGAAAUACGCAGUUUGGUUUCAGAAAAGAUUUAUUAGAAAACUGGAAUUCUCGGGUGCCAA	0.544
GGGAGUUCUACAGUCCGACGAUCGGCCAGCUGAGGGGAAGUUGCUGGUGAGUUUCCUUUUCUCCAUUUCUAGCAUAUGGACACCUGGCCUCUGCUUGAGCACUUAGGUGACAGGAACUUCCGCACCUCCUGAGUGGAAUUCUCGGGUGCCAA	0.593
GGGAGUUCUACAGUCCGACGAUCGGUUUCUUGCAUCUGAUCUUUCUACCACAACCACACCUGUCGUCCACUCUUCUGACUUGGUUUCUCCAAAUGGGAGGAGACCCAGCUCUGGACAGAAAGGGGACCCGACUUGGAAUUCUCGGGUGCCAA	0.62
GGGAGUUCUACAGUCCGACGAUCAAAUGAAAACUAUAAAUUGCAAGUAUUCUGGAAUUGGGAAAUACUUAUUUUAAAUGAGAUCAGGUAGUGUUGCUUUUUACAGCAUAAUAAAUAUGUGUAUUGAAAACAAAUGGAAUUCUCGGGUGCCAA	0.874
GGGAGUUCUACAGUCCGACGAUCGAUGUAGAUUCGUCCUUUAUUGGUAGUCGCAGUUGAUAUUUCAAGAGAGUGAGAUGCCAUGCUGACAAUAUUAAGAUCUAUUUGAAUAUUUAGAAAUGUCUUACUGUAUAUGGAAUUCUCGGGUGCCAA	0.456
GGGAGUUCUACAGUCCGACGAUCAUCCAAUAGGUGAUGAAAUACAUUUUUUACAAACAUAGAUGCUUUUUAUUUGUAUGUUGAAUGUACAGAUUCAUUUCAAGAAAAGCAUGAAGAUAAUGAAAGCAAAUAUGUGGAAUUCUCGGGUGCCAA	1.85
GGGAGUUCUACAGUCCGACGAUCGGGAGGAGGACUUGGCAACUGGCUUUUCUCCUGUGGAGUCGUCACACGCCAUCCAGCAGCGCUAAGGUGGACAUGGGAUUCCUCCCUGCGAUGCGUGUCUUUCCCACGCAUGGAAUUCUCGGGUGCCAA	0.611

Series 2 — method: RNAcompete; molecule type: RNA; matrix: in vitro; tested at: 20 nM; notes: 7-mer, probes averaged, single round; reference: mean of 7-mers; reading: higher = stronger binding
Target: PABPC1L2, full length, GST fusion (mouse, UniProt A0ABA7IW68)
Construct (chain): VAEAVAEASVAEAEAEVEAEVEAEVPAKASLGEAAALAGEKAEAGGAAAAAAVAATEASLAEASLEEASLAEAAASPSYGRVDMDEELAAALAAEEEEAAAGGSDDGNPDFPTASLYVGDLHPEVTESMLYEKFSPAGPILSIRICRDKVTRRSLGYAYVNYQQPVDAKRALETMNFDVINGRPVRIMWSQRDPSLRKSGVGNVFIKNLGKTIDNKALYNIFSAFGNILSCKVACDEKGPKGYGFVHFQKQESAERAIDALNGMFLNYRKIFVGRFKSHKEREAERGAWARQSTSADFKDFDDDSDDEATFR
Oligonucleotide	7-mer Z-score
UACAUGC	-0.161
CAACACA	0.189
UCACAAU	-0.139
AAGCAGC	0.329
GAACUGA	0.102
CCGUGAU	-0.257
GUAUCCU	-0.356
GUAGACC	-0.124
AACUCUG	0.0442
GUUUUUC	-0.322
UAUGGAG	-0.0264
GGUCGGU	-0.0772
GGAAACG	-0.0283
ACUGAUU	-0.0409
AGGCAUA	0.2
ACAACAU	0.294
AGCCUCC	-0.347

Series 3 — method: protein-binding microarray; molecule type: double-stranded DNA, one strand shown; matrix: in vitro; tested at: 250 nM; notes: 60-bp whole probe; added: salmon DNA 0.4 mg/ml; reference: random background probes; reading: higher = stronger binding; shared flanks, not repeated: GCCTAGCAC … GTCTTGATTCGCTTGACGCTGCTG
Target: Interferon regulatory factor 5, full length, phosphomimetic (IRF5, Homo sapiens, UniProt Q13568-2, residues 1-514, K96S/S451D/S453D/S456D/S462D)
Oligonucleotide	log fluorescence
GACGATTTCGGGTATCGCGACGTGCTA	4.05 z-score
TTAGCACTGGGGTTTCGATTAGTGCTA	5.14 z-score
CTAGTTTTACTTTCTATCTCGTGCTAG	5.31 z-score
GACGGTTTTCTTTTCCTGACGTGCTAG	0.946 z-score
GACGGTATCGACATTGGGGACGTGCTA	1.83 z-score
TCACTTTCAGTTTTCCTACTGTGCTAG	8.95 z-score
TTAGGTATCCTTATCCTTGAGTGCTAG	0.182 z-score
GACGGACTGGACTAACGGGACGTGCTA	-0.734 z-score
ATTGCTTCCTCTTTCTCTGCGTGCTAG	1.14 z-score
TTAGGACTGGACTTTCGGTAAGTGCTA	8.55 z-score
GACGGTAACGGGACTGGGGACGTGCTA	-0.603 z-score
TCACCTCTCATTCCAATACTGTGCTAG	0.573 z-score
GACGGTATCCTTCGCCTGACGTGCTAG	0.203 z-score
AAGGTTACCCATCTCAAGTAGTGCTAG	-0.0755 z-score
TCATTACCGCATATCGGACTGTGCTAG	0.563 z-score
GACGGATTGGGGACTGGGGACGTGCTA	-0.542 z-score
GACGGACTGGGACTGCGGACGTGCTAG	-0.642 z-score
GACGGTATCGACTATCGAGACGTGCTA	4.05 z-score
TCACCTATAGGGCCTGACACTGTGCTA	-0.36 z-score
TTAGAACTGAGTATCGATTGGTGCTAG	6.59 z-score
GACGGTATCGGGTATAGGGACGTGCTA	2.71 z-score
TTAGGACGGGGTATCGGTTAGTGCTAG	2.74 z-score

Series 4 — method: RNA Bind-n-Seq; molecule type: RNA; matrix: in vitro; tested at: not given; reference: input RNA pool; reading: higher = stronger binding
Target: RING finger protein unkempt homolog, zinc fingers 1-6, GST-SBP tag (UNK, Homo sapiens, UniProt Q9C0B0, residues 30-357)
Notes: RNA with constant flanks, human-mouse chimeric sites, ends assumed
Construct (chain): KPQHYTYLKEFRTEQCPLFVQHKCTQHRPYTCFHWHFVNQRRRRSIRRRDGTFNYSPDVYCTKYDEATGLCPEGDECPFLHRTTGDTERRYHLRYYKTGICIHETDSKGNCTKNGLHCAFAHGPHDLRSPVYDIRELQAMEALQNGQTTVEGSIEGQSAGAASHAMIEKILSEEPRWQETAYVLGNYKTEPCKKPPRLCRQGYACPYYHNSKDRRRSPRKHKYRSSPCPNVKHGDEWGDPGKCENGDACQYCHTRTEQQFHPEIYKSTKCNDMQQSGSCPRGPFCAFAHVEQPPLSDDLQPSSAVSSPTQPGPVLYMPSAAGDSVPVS
Oligonucleotide	bound/input enrichment
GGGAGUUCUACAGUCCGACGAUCGCAAAGGAUGAUGAGGCGGCAGCUGUUGCACUUUCCUCUCUCGUUCAUGCUUUGGAUGACUUAGACAUGGUCGCCAUCGUCCGAUAUGCUUAUGACAAAAGAUCUAAUCCUCAAGUUGGUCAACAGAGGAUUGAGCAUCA	0.0902 ratio
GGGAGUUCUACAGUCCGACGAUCGCAUAUGGUUAUCGAGGAAAGGACUGUAGAGCUAAUGUAUACCUGCUUCCCACAGGGGAGAUAGUUUAUUUUAUCGCCUCAGUGGUAGUCCUGUUUAAUUAUGAGGAGAGGACUCAGCGACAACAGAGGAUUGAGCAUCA	0.331 ratio
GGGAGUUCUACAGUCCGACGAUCGCGGCAGAAUCAUGGAGGACAUGAUGGAGCUCCCCAAAGCGCGCGUCAACGCCAGCAUGCUAGCUCAGUAUAUCGACCGGCCCGUGUGCUUCGUGGGGAAGCUGGAAAAGAUUCAUCCCACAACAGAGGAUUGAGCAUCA	0.102 ratio
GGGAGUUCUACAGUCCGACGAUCCACGUGUCUGCAGUACUUGAUGUGGAUUACUCUCCCACUGGGAAGGAAUUUGUGUCUGCCAGCUUUGAUAAAUCUAUUAGAAUCUUUCCUGUGGACAAGAGCCGAAGCAGGGAAGUGUAUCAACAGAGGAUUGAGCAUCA	0.219 ratio
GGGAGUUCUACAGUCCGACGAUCGGGGAGAAACCUUACGAAUGCGUUCAGUGUGGGAAAUCCUACAGUCAAAGCUCAAAUCUCUUCAGACAUCAGAGACGACACAAUGCAGAAAAACUUUUGAAUGUUGUGAAGGUUUAAGAACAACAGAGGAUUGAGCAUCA	0.107 ratio
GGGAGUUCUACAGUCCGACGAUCUCCCAAAUCCAGCAGCUAGAAGGAGCCAAUUGUUUGUCACUCCACACACAGGGAAGGCGAUAACAUUGUAAAUUGGUUUACAUUUUUUCCCCCUGUGGAUUUUUCUAGAGGUCAUAGUGCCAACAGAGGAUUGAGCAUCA	0.32 ratio
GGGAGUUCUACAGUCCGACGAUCGAUAAGAAAAGCUUGUUGGAGACCCGCUUGCAUGUCACUGGUAGAGACCUGAGGUGUCAAAUAGCUGAAACUUUCGGAUUUCAAGAAAAUUAUAUCAAGAUCGUAAUAAAUAAGAAGCAGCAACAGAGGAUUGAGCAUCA	0.684 ratio
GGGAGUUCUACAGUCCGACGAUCCACACACUCUUCUGCGGGACCCUCAUCUUGCAGGCCCGGGCCUAUGUGGGACCCCGUGUCCUGGCAGUGGUGACCCGGACAGGGUUCUGCACGGCAAAAGGGGGCCUGGUGAGCUCCAUCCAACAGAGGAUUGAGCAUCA	0.0375 ratio
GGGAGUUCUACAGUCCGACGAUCGAUAAGAAAAGCUUGUUGGAGACCCGCUUGCAUGUCACUGGUAGAGAACUGAGGUCCAAAAUAGCUGAAACUUUCGGAUUUCAAGAAAAUUACAUCAAGAUCGUAAUAAAUAAGAAACAGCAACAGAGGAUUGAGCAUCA	0.443 ratio
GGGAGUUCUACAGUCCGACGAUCUAAGUCCUGUGCCAGCACUUCGCUCAUAAAGUUUUAAAUUCUGGACCAAUAGUGUUUGUUUCCUGAUUUUUGUAUUCAAUACUUUGCCUAGUAUGUAACUCAUGCUUACUGAUAAUAAAACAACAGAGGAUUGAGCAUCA	0.469 ratio
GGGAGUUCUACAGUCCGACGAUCAAUUUCCUGUCAUACUUUUUAGACAUUCACAUCAGACUUACAGAGCACCUGGCCACAUUCUAGGUUUGUGUUAUUUCUCAGCUAUGGGGGUAUGAUUAGAGUGAAAAUGCUUAACUAAUGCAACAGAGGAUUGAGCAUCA	1.55 ratio
